Published values of several laboratories.
Lines come from different studies, so protocols differ. ± marks the error that the study gave.
Organism: SARS-CoV-2

C=CCn1c(C)cc(C(=O)COn2nnc3ccc(S(=O)(=O)N(C)C)cc32)c1C — EC50 (viral replication, cell-based): inactive
CC[C@H](C)[C@H](NC(=O)[C@H](CCCCN)NC(=O)[C@@H](NC(=O)[C@H](CCC(N)=O)NC(=O)[C@H](CCCNC(=N)N)NC(=O)COCCOCCNC(C)=O)[C@@H](C)CC)C(=O)N[C@@H](Cc1c[nH]c2ccccc12)C(=O)N[C@@H](Cc1ccccc1)C(=O)N[C@@H](CCC(N)=O)C(=O)N[C@@H](CC(N)=O)C(=O)N[C@@H](CCCNC(=N)N)C(=O)N[C@@H](CCCNC(=N)N)C(=O)N[C@@H](CCSC)C(=O)N[C@@H](CCCCN)C(=O)N[C@@H](Cc1c[nH]c2ccccc12)C(=O)N[C@@H](CCCCN)C(=O)N[C@@H](CCCCN)C(N)=O — EC50 (viral replication): > 50 µM
CO/C1=C\C(C)=C\[C@@H](C)[C@@H](O)[C@@H](C)C/C(C)=C/C=C/[C@H](OC)[C@@H]([C@@H](C)[C@@H](O)[C@H](C)C(=O)/C=C/[C@H](C)[C@H](O)C(C)C)OC1=O — EC50 (viral replication, item: nucleocapsid protein; Calu-3, Omicron BA.5): 0.0439 µM
N#Cc1ccccc1CC(N)C(=O)NC(Cc1ccc(Cl)cc1Cl)C(=O)NC(CC(=O)NCCCCN1CCCC1)Cc1ccc(F)cc1 (stereo not shown) — EC50 (viral replication; USA-WA1/2020; 24 h): 0.7 µM
Clc1cc(Cl)cc(CCCN2CCCC3=CC4CC(CN5CCCCC45)C32)c1 (stereo not shown) — EC50 (pseudovirus entry; pseudovirus): 7.4 µM
CNC(=O)C[C@H](Cc1ccncc1)NC(=O)[C@@H](Cc1cccc(Br)c1)NC(=O)[C@@H](N)Cc1ccsc1 — EC50 (viral replication; USA-WA1/2020; 24 h): > 10 µM
O=C1CC(c2ccccc2)Oc2ccccc21 (stereo not shown) — EC50 (viral replication; Vero): > 100 µM
Cc1ccc(N2CCN(C)CC2)cc1C(=O)NC1(c2ccc3c4c(cccc24)CC3)CC1 — EC50 (viral replication; Vero C1008, wild type): 0.4 µM
O=CN(CCCc1cn(-c2ccc(CN3CCOCC3)cc2)nn1)CCNc1ccnc2cc(Cl)ccc12 — EC50 (viral replication; Caco-2; 30 h): 22.9 ± 12.4 µM
C[C@H](c1cccc2ccccc12)N(C)Cc1ccc2[nH]ncc2c1 — EC50 (viral replication; Vero E6, USA-WA1/2020; 24 h): ≤ 10 µM
CCn1ccc(-c2cc(-c3cnn(C)c3)cc([C@@H](C)NC(=O)c3cc(OCCN(C)C)ccc3C)c2)n1 — EC50 (viral replication, plaque; recombinant Y268H): 4.8 µM
C#CCCCNCCNc1ccnc2cc(Cl)ccc12 — EC50 (viral replication; Caco-2; 30 h): 5.9 ± 3.2 µM
Cc1ccc(CNC(=O)c2ccccc2I)cc1C(=O)N[C@H](C)c1cccc2ccccc12 — EC50 (viral replication; Vero C1008, WK-521 ancestral Wuhan): 13.2 ± 0.9 µM
Cc1cc(C)nc(Sc2nc3sccn3c2[N+](=O)[O-])n1 — EC50 (viral replication): > 100 µM
COc1cccc2[nH]c(C(=O)N[C@@H](CC(C)C)C(=O)N[C@@H](C[C@@H]3CCNC3=O)C(=O)c3nc4ccccc4s3)cc12 — EC50 (viral replication; VeroE6, WK-521 (ancestral Wuhan)): 2.6 ± 0.07 µM
O=S(=O)(c1ccc(Cl)cc1)N1CCCC2=CC3CC(CN4CCCCC34)C21 (stereo not shown) — EC50 (pseudovirus entry; pseudovirus): > 267 µM
O=C(CCCCCCCCCCc1ccc(O)c(O)c1)c1c(O)cccc1O — EC50 (MTT; Vero E6/TMPRSS2, WK-521 ancestral): 14 µM
Cc1ccc(OCCN(C)C)cc1C(=O)N[C@H](C)c1cc(-c2cnn(C)c2)cc(-c2cnn(C(C)C)c2)c1 — EC50 (viral replication; Caco-2, icSARS-CoV-2-nLuc reporter): 0.45 µM
Cc1ccc(CNC(=O)c2cc(F)c(Br)cc2Cl)cc1C(=O)N[C@H](C)c1cccc2ccccc12 — EC50 (viral replication; Vero C1008, WK-521 ancestral Wuhan): > 100 µM
N#Cc1ccccc1C[C@@H](N)C(=O)N[C@H](Cc1ccc(Cl)cc1Cl)C(=O)N[C@H](CC(=O)Nc1nnc(N)[nH]1)Cc1ccc(F)cc1 — EC50 (viral replication; USA-WA1/2020; 24 h): > 10 µM
CCn1ccc(-c2cc(-c3cnn(CCOC)c3)cc([C@@H](C)NC(=O)c3cc(OCCN(C)C)ccc3C)c2)n1 — EC50 (viral replication; Caco-2, icSARS-CoV-2-nLuc reporter): 0.96 µM
CN(C)c1ccc(N(Cc2cc(Cl)cs2)C(=O)Cc2cncc3ccccc23)cc1 — EC50 (dsRNA staining; Caco-2, Omicron XBB.1.5): 0.2 µM
CC(=O)OC1(C)CC(C=C(C)CCC=C(C)C)OC2(C=C(CO)C3CC(=O)C(C)=CC3O2)C1 (stereo not shown) — EC50 (viral replication, item: nucleocapsid protein; Calu-3, Omicron BA.2): 0.7 µM
Cc1ccc(CNC(=O)c2ccccc2Cl)cc1C(=O)N[C@H](C)c1cccc2ccccc12 — EC50 (viral replication; Vero C1008, WK-521 ancestral Wuhan): 35.6 ± 1.7 µM
Clc1ccc(CN2CCCC3=CC4CC(CN5CCCCC45)C32)c(Cl)c1 (stereo not shown) — EC50 (pseudovirus entry; pseudovirus): 22 µM
CCC(CC)COC(=O)[C@H](C)N[P@](=O)(OC[C@H]1O[C@@](C#N)(c2ccc3c(N)ncnn23)[C@H](O)[C@@H]1O)Oc1ccccc1 — EC50 (viral replication; 1 h): 0.294 µM
O=S(=O)(c1ccc(Cl)c(Cl)c1)N1CCCC2=CC3CC(CN4CCCCC34)C21 (stereo not shown) — EC50 (pseudovirus entry; pseudovirus): 137 µM
O=C1C(O)=C(Nc2ccccc2Cl)C(=O)c2ccccc21 — EC50 (viral replication; Calu-3; 48 h): 2.3 ± 0.3 µM
COc1ccc(-c2cnc3c(C#Cc4cccnc4)snc3c2)cc1OC — EC50 (viral replication; USA-WA1/2020): 0.13 µM
Cc1cncc(C(=O)N2CCN(C(c3ccccc3)c3ccccc3)CC2)c1 — EC50 (viral replication; USA-WA1/2020): 0.41 µM
O=C(c1ccc(Cl)c(Cl)c1)N1CCCC2=CC3CC(CN4CCCCC34)C21 (stereo not shown) — EC50 (pseudovirus entry; pseudovirus): 197 µM
C[C@@H]1O[C@@H](n2c3ccccc3c3c4c(c5c6ccccc6[nH]c5c32)CNC4=O)C[C@@H](N)[C@H]1O — EC50 (viral replication, item: nucleocapsid protein; Calu-3, Omicron BA.5): 0.08 µM
Cc1ccc(CNC(=O)c2ccc(Br)cc2)cc1C(=O)N[C@H](C)c1cccc2ccccc12 — EC50 (viral replication; Vero C1008, WK-521 ancestral Wuhan): 26.2 ± 3.9 µM
C[C@](C(=O)NC1CCOCC1)(c1cncnc1)N(C(=O)[C@H](F)Cl)c1ccc(OC(F)(F)Cl)cc1 — EC50 (viral replication; Vero C1008, XBB.1): 0.04 µM
Cc1ccc(CNC(=O)c2cccc(C(F)(F)F)c2Cl)cc1C(=O)N[C@H](C)c1cccc2ccccc12 — EC50 (viral replication; Vero C1008, WK-521 ancestral Wuhan): > 100 µM
CCOc1ccc2nc3cc(N)ccc3c(N)c2c1 — EC50 (viral replication, plaque; Vero C1008; 16 h): 0.08 ± 0.01 µM
N#Cc1ccccc1C[C@@H](N)C(=O)N[C@H](Cc1ccc(Cl)cc1Cl)C(=O)N[C@H](CC(=O)NC(N)=O)Cc1ccc(F)cc1 — EC50 (viral replication; USA-WA1/2020; 24 h): > 10 µM
CN(CC(=O)N1CCCC2=CC3CC(CN4CCCCC34)C21)c1ccc(Cl)cc1 (stereo not shown) — EC50 (pseudovirus entry; pseudovirus): 21.1 µM
CN(C)CCCCCNC(=O)C[C@H](Cc1ccc(F)cc1)NC(=O)[C@@H](Cc1ccc(Cl)cc1Cl)NC(=O)[C@H](N)Cc1ccccc1C#N — EC50 (viral replication; USA-WA1/2020; 24 h): 1.7 µM
Cc1ccc(OCCN(C)C)cc1C(=O)N[C@H](C)c1cc(-c2cnn(C)c2)cc(-c2cnn(C(F)F)c2)c1 — EC50 (viral replication; Caco-2, icSARS-CoV-2-nLuc reporter): 0.23 µM
Cc1cc(O)ccc1CN(C)[C@H](C)c1cccc2ccccc12 — EC50 (viral replication; Vero E6, USA-WA1/2020; 24 h): > 60 µM
CC(C)(C)[C@H](NC(=O)C(F)(F)F)C(=O)N1C[C@H]2[C@@H]([C@H]1C(=O)N[C@H](C#N)C[C@@H]1CCNC1=O)C2(C)C — EC50 (dsRNA staining; Calu-3, Omicron BA.5): 0.7 µM
N#Cc1ccccc1C[C@@H](N)C(=O)N[C@H](Cc1ccc(Cl)cc1Cl)C(=O)N[C@H](CC(N)=O)Cc1ccc(F)cc1 — EC50 (viral replication; USA-WA1/2020; 24 h): 1.2 µM
CCOC(=O)[C@@H](NC(=O)c1ccccc1[Se][Se]c1ccccc1C(=O)N[C@H](C(=O)OCC)C(C)C)C(C)C — EC50 (viral replication, RT-qPCR; Vero; 48 h): 15 µM
CCC1OC(C2(C)CC(C)C(O)(C3(C)CCC(C(O)C4(O)OC(CC5(O)OC(C(C)C(O)CC6CCC(C)C(C(C)C(=O)O)O6)CCC5C)C(C)CC4C)O3)O2)CCC1(C)O (stereo not shown) — EC50 (cytopathic effect; Vero E6-hTMPRSS2): 0.014 µM
CN(C)c1ccc(N(Cc2cc(Cl)cs2)C(=O)Cc2cncc3cccc(O)c23)cc1 — EC50 (viral replication, dsRNA staining; Calu-3, Omicron BQ.1.1): 0.028 µM
COc1ccc(CCCCCCCCC(=O)c2c(OC)cccc2OC)cc1OC — EC50 (MTT; Vero E6/TMPRSS2, WK-521 ancestral): 6 µM
CCOC(=O)Cn1[se]c2ccccc2c1=O — EC50 (viral replication, RT-qPCR; Vero; 48 h): 24 µM
CCc1cccc2c(C(=O)NC3CCN(C(=O)C(C)C)CC3)c[nH]c12 — EC50 (viral replication): > 100 µM
CNC(=O)C[C@H](Cc1ccncc1)NC(=O)[C@@H](Cc1cccc(Br)c1)NC(=O)[C@@H](N)Cc1cccc(F)c1 — EC50 (viral replication; USA-WA1/2020; 24 h): > 10 µM
Cc1ccc(N2CC(N3CCC(C)(O)CC3)C2)cc1C(=O)NC1(c2ccc3c4c(cccc24)CC3)CC1 — EC50 (viral replication; Vero C1008, wild type): 0.233 µM
Oc1c(Br)cc(Br)c2cccnc12 — EC50 (viral replication, immunofluorescence; Vero E6, delta B.1.617.2; 24 h): 2.7 µM
